Measurements pooled from the literature.
Lines come from different studies, so protocols differ.
Cell line: NCI-H226

S=C([S][Au-][P+](CCCCCC[P+]([Au-][S]C(=S)n1cccn1)(c1ccccc1)c1ccccc1)(c1ccccc1)c1ccccc1)n1cccn1  log10 TGI (cell growth, NCI-60 screen; non-small cell lung cancer): > -4
Cc1n[nH]c2nc(-c3ccc(Cl)cc3)c3c(NC(=O)c4ccccc4)nnc-3n12  cell growth (SRB; 10 µM, NCI60 single-dose screen; baseline: untreated): 107%
Cc1n(Cc2ccc3ccccc3c2)c2ccccc2[n+]1Cc1ccc2ccccc2c1.[Br-]  TGI (NCI60 five-dose screen): 3.2 µM
CCCCN1CCN(c2ccc3[nH]c(-c4ccc5[nH]c(-c6ccc(OCC)c(OCC)c6)nc5c4)nc3c2)CC1  growth percent (cell growth, NCI-60 SRB; 10 µM): 16.2%
Cc1cc(-c2ccccc2)n(-c2nc(-c3ccc(Cl)cc3)c3c(NC(=O)c4ccccc4)nnc-3[nH]2)n1  cell growth (SRB; 10 µM, NCI60 single-dose screen; baseline: untreated): 93.8%
[Br-].c1ccc2cc(Cn3c[n+](Cc4ccc5ccccc5c4)c4ccccc43)ccc2c1  TGI (NCI60 five-dose screen): 3.25 µM
O=C(Nc1nnc2n3c(=S)[nH][nH]c3nc(-c3ccc(Cl)cc3)c1-2)c1ccccc1  cell growth (SRB; 10 µM, NCI60 single-dose screen; baseline: untreated): 106%
C#C[C@@]1(O)[C@@H](CO)O[C@@H](n2cc(I)c3c(N)ncnc32)[C@@H]1O  TGI (SRB; NCI-60 screen): > 100 µM
Cn1cncc1C1=CN(c2ncnc3[nH]cnc23)CCS1  TGI (lung cancer): 110 µM
Cc1cc(=O)[nH]n1-c1nc(-c2ccc(Cl)cc2)c2c(NC(=O)c3ccccc3)nnc-2[nH]1  cell growth (SRB; 10 µM, NCI60 single-dose screen; baseline: untreated): 94.5%
COCCOCCOCc1n(Cc2ccc3ccccc3n2)c2ccccc2[n+]1Cc1ccc2ccccc2c1.[Br-]  TGI (NCI60 five-dose screen): 4.83 µM
CCCN1CCN(c2ccc3[nH]c(-c4ccc5[nH]c(-c6ccc(OCC)c(OCC)c6)nc5c4)nc3c2)CC1  growth percent (cell growth, NCI-60 SRB; 10 µM): -58.2%
C#C[C@@]1(O)[C@@H](CO)O[C@@H](n2ccc3c(N)ncnc32)[C@@H]1O  TGI (SRB; NCI-60 screen): 4.85 µM
CCCCCCCCCCCCCCCCCCOc1ccc(CC(=O)OCC[N+]2(C)CCOCC2)cc1  growth inhibition (SRB; 10 µM): < 0%
CCCCN1CCN(c2ccc3[nH]c(-c4ccc5[nH]c(-c6cc(OC)c(OC)c(OC)c6)nc5c4)nc3c2)CC1  growth percent (cell growth, NCI-60 SRB; 10 µM): 77.7%
O=C(Nc1nnc2n3c(Cc4ccccc4)n[nH]c3nc(-c3ccc(Cl)cc3)c1-2)c1ccccc1  cell growth (SRB; 10 µM, NCI60 single-dose screen; baseline: untreated): 94%

Some of these lines once more:
CCCN1CCN(c2ccc3[nH]c(-c4ccc5[nH]c(-c6ccc(OCC)c(OCC)c6)nc5c4)nc3c2)CC1  growth percent (cell growth, NCI-60 SRB; 10 µM): -58.2%
Cc1cc(=O)[nH]n1-c1nc(-c2ccc(Cl)cc2)c2c(NC(=O)c3ccccc3)nnc-2[nH]1  cell growth (SRB; 10 µM, NCI60 single-dose screen; baseline: untreated): 94.5%
